Measurements pooled from the literature.
Each numbered part is a random draw from the data of one study; scales do not carry over between parts. Substitutions count along the parent as printed.

Series 1
Target: ABI1, truncated, D143A, DHFR fusion (Arabidopsis thaliana)
Method: DHFR PCA, deep sequencing
Matrix: yeast
Setting: methotrexate growth selection, single substitutions
With: (+)-ABA 0.0091 µM
Reference: wild-type fitted maximum
Direction: higher = stronger binding
Starting sequence: PYL1, truncated, DHFR fusion (Arabidopsis thaliana); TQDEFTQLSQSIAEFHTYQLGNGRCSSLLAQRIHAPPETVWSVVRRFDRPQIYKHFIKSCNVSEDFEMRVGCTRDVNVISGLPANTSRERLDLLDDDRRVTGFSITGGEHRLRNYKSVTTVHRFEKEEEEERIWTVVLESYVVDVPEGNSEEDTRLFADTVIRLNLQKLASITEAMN
For `V136Q`, “relative binding score” read -5.21%.
Under “relative binding score”, `E152G` is recorded as 3.24%.
Under “relative binding score”, `I57F` is recorded as -5.33%.
`P146A`: “relative binding score” 26.5%.
`A170S`: “relative binding score” -3.09%.
Under “relative binding score”, `A84L` is recorded as 18.6%.
For `M176N`, “relative binding score” read 3.81%.
Under “relative binding score”, `S42A` is recorded as 31.8%.
`L20N` — result for “relative binding score”: 28.7%.
For `Y53I`, “relative binding score” read 3.3%.
Under “relative binding score”, `P50V` is recorded as 0.202%.
Under “relative binding score”, `F56P` is recorded as -6.23%.
For `T39V`, “relative binding score” read 53.7%.
Under “relative binding score”, `E139P` is recorded as -7.05%.
Under “relative binding score”, `T1M` is recorded as 46.6%.
Under “relative binding score”, `S150C` is recorded as 15.9%.

Series 2
Target: UBE2Q2 UBC core domain (UniProt Q8WVN8)
Sequence of UniProt Q8WVN8 (whole entry, looked up): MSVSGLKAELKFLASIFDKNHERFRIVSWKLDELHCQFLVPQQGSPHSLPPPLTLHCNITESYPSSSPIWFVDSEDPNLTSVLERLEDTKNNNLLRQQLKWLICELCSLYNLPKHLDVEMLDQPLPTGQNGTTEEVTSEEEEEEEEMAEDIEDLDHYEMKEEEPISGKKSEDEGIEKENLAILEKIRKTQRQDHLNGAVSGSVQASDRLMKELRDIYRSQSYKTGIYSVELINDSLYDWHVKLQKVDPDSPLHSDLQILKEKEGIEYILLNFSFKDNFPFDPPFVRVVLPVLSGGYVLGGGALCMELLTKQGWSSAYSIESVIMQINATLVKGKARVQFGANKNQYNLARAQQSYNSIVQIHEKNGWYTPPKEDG
Method: yeast two-hybrid
Matrix: yeast
Setting: mostly zero background
Reference: not given
Direction: higher = stronger interaction
B1: RNF5 RING domain (UniProt Q99942); chain ERGGAGATFECNICLETAREAVVSVCGHLYCWPCLHQWLETRPERQECPVCKAGISREKVVP
B2: NSMCE1 RING domain (UniProt Q8WV22); chain RETYPDAVKICNICHSLLIQGQSCETCGIRMHLPCVAKYFQSNAEPRCPHCNDYWPHEIPKV
B3: TRIM52 RING domain (UniProt Q96A61); chain PMQTLQEEAVCAICLDYFKDPVSISCGHNFCRGCVTQLWSKEDEEDQNEEEDEWEEEEDEEAV
B4: TRIM35 RING domain (UniProt Q9UPQ4); chain PSRSFKEELLCAVCYDPFRDAVTLRCGHNFCRGCVSRCWEVQVSPTCPVCKDRASPADLRT
B5: TRIM55 RING domain (UniProt Q9BYV6); chain TMDNLEKQLICPICLEMFTKPVVILPCQHNLCRKCASDIFQASNPYLPTRGGTTMASGGRFRCPSCRHEVVLDRHG
B6: PHF7 RING domain (UniProt Q9BWX1); chain IQHGHVGEESCILCCEDLSQQSVENIQSPCCSQAIYHRKCIQKYAHTSAKHFFKCPQCNNRKEFPQEML
B7: RFPL2 RING domain (UniProt O75678); chain MAALFQEASSCPVCSDYLEKPMSLECGCAVCLKCINSLQKEPHGEDLLCCCSSMVSRKNKIRR
B8: TRIM15 RING domain (UniProt Q9C019); chain SLKVVHELPACTLCAGPLEDAVTIPCGHTFCRLCLPALSQMGAQSSGKILLCPLCQEEEQAETPMA
B9: MSL2 RING domain (UniProt Q9HCI7); chain LLPYFRQSLSCCVCGHLLQDPIAPTNSTCQHYVCKTCKGKKMMMKPSCSWCKDYEQFEENKQ
Under “lacZ reporter activity”, `LKQVSIRENCCSLCCDEVADTQLKPCGHSDLCMDCALQLETCPLCRKEIVSRIRQI (RSPRY1 RING domain (UniProt Q96DX4))` is recorded as 0.
Under “lacZ reporter activity”, `B1 (RNF5 RING domain)` is recorded as 0.
`B2 (NSMCE1 RING domain)` — result for “lacZ reporter activity”: 0.
For `KRQCSDVDDICSICQAEFQKPILLICQHIFCEECMTLWFNREKTCPLCRTVISDHINKW (RNFT1 RING domain (UniProt Q5M7Z0))`, “lacZ reporter activity” read 0.
Under “lacZ reporter activity”, `B3 (TRIM52 RING domain)` is recorded as 0.
Under “lacZ reporter activity”, `ISNDSETLEECMVCSDMKRDTLFGPCGHIATCSLCSPRVKKCLICKEQVQSRTKIE (MIB1 RING domain (UniProt Q86YT6))` is recorded as 0.
Under “lacZ reporter activity”, `B4 (TRIM35 RING domain)` is recorded as 0.
`FLKKLEQSFMCVCCQELVYQPVTTECFHNVCKDCLQRSFKAQVFSCPACRHDLGQNYIMI (UHRF2 RING domain (UniProt Q96PU4))` — result for “lacZ reporter activity”: 0.
Under “lacZ reporter activity”, `B5 (TRIM55 RING domain)` is recorded as 0.
For `B6 (PHF7 RING domain)`, “lacZ reporter activity” read 0.
Under “lacZ reporter activity”, `B7 (RFPL2 RING domain)` is recorded as 0.
Under “lacZ reporter activity”, `B8 (TRIM15 RING domain)` is recorded as 0.
`QLQDEEDDSLCRICMDAVIDCVLLECGHMVTCTKCGKRMSECPICRQYVVRAVHVF (RNF34 RING domain (UniProt Q969K3))`: “lacZ reporter activity” 0.
`B9 (MSL2 RING domain)`: “lacZ reporter activity” 0.

Series 3
Target: Sal-like protein 4, full length isoform B (SALL4, Homo sapiens, UniProt Q9UJQ4-2, residues 1-616)
Method: universal PBM
Form: double-stranded DNA, one strand shown
Matrix: in vitro
Tested at: not given
Setting: 8-mer, flanks averaged, mean of replicates
Direction: higher = stronger binding
With `CACCGTAG` the E-score was -0.101.
`ACTGTTCA` has an E-score of -0.0652.
`CAAGGGTG` gave an E-score of -0.0842.
`TCCTCTAA` gave an E-score of 0.0357.
`AGTTCTCA` has an E-score of 0.0813.
The E-score of `CAAATGAC` is reported as 0.1.
The E-score of `AGTGGCAG` is reported as -0.196.
`GATCTGGA` gave an E-score of -0.0224.
With `CGGGAGCC` the E-score was -0.351.
The E-score of `ATATGCAG` is reported as 0.198.
`ACAATCAG` gave an E-score of 0.152.
With `CAGACAAA` the E-score was 0.0866.
`ACGTCAGT` has an E-score of -0.166.
The E-score of `GAAGACCC` is reported as -0.17.
For `GCTTAGCC`, the E-score was -0.209.
For `CCAGACGG`, the E-score was -0.382.
`GTGAATCA` has an E-score of -0.0506.
For `AACCACGT`, the E-score was 0.0406.
With `CGCGCACA` the E-score was -0.195.
`ACGAGTCT` has an E-score of 0.00212.
The E-score of `AGTAGAAG` is reported as -0.0384.
With `CCGTCCTC` the E-score was -0.143.
`ATCCTGCG` gave an E-score of -0.187.
`AGATCTAA` has an E-score of -0.00389.
`CGACTTTA` gave an E-score of 0.0599.

Series 4
Target: CCNE1, cyclin fold, Cln2 fusion (human)
Method: yeast growth competition, sequencing
Matrix: yeast
Setting: strong parent motif
Reference: not given
Direction: higher = stronger binding
Starting sequence: CDKN1B docking peptide (human); PSACRNLFGPVDH
For `V11G`, “normalised enrichment score” read 2.7.
`N6E` — result for “normalised enrichment score”: 1.34.
Under “normalised enrichment score”, `G9L` is recorded as 1.02.
`N6Q`: “normalised enrichment score” 4.5.
`P10A`: “normalised enrichment score” 2.74.
Under “normalised enrichment score”, `R5E` is recorded as 0.769.
`P10N`: “normalised enrichment score” 3.65.
`S2W` — result for “normalised enrichment score”: 0.945.
`A3K`: “normalised enrichment score” 0.119.
`P1V`: “normalised enrichment score” 3.56.
Under “normalised enrichment score”, `C4I` is recorded as 1.51.
`L7Q` — result for “normalised enrichment score”: 0.182.
`N6G`: “normalised enrichment score” 0.0773.
Under “normalised enrichment score”, `P10C` is recorded as 3.06.
`N6Y` — result for “normalised enrichment score”: 0.3.
`S2L` — result for “normalised enrichment score”: 1.63.
For `L7M`, “normalised enrichment score” read 0.431.
`H13T` — result for “normalised enrichment score”: 2.88.
For `C4M`, “normalised enrichment score” read 0.703.
Under “normalised enrichment score”, `V11S` is recorded as 2.72.
`A3F` — result for “normalised enrichment score”: 3.55.
`P10Q`: “normalised enrichment score” 2.96.
`D12S`: “normalised enrichment score” 2.91.
Under “normalised enrichment score”, `P1W` is recorded as 3.02.
Under “normalised enrichment score”, `R5A` is recorded as 0.136.

Some of these lines once more (series 4):
`P10A`: “normalised enrichment score” 2.74.
`S2W` — result for “normalised enrichment score”: 0.945.
Under “normalised enrichment score”, `R5A` is recorded as 0.136.
`A3K`: “normalised enrichment score” 0.119.
Under “normalised enrichment score”, `G9L` is recorded as 1.02.
`S2L` — result for “normalised enrichment score”: 1.63.
